Results collected from several papers.
Parts stem from different laboratories: compare values within a part only. Substitutions count along the parent as printed.
Sequence of UniProt P23458 (whole entry, looked up): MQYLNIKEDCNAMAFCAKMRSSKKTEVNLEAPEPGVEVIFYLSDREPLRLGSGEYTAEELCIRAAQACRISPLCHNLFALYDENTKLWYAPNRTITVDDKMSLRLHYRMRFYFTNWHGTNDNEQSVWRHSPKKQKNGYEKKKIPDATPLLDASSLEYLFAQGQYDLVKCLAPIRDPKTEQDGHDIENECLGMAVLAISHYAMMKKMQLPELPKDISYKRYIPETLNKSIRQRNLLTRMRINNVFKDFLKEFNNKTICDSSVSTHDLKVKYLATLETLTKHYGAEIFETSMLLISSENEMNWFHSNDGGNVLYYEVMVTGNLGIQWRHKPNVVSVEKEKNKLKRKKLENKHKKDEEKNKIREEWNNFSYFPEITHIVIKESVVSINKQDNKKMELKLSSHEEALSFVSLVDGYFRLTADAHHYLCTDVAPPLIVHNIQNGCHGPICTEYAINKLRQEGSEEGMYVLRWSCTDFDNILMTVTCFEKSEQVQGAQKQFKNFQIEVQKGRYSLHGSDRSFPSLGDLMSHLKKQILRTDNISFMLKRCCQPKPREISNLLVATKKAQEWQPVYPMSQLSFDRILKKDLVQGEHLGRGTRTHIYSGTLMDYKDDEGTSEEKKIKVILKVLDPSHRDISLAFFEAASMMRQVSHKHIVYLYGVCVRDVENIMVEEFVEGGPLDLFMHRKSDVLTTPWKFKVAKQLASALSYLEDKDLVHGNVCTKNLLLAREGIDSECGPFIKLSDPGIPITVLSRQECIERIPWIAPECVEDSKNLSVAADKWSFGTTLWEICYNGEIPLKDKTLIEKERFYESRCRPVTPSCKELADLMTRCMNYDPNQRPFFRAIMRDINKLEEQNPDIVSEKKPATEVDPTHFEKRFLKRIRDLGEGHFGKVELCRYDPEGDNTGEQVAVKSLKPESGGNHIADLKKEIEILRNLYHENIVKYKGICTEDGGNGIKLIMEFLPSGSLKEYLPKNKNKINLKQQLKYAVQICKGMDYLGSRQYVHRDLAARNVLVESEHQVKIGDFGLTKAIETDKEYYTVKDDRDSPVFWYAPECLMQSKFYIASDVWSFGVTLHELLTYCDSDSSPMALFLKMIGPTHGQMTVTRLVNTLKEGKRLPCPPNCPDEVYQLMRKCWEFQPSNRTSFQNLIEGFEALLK
Sequence of UniProt O43283 (whole entry, looked up): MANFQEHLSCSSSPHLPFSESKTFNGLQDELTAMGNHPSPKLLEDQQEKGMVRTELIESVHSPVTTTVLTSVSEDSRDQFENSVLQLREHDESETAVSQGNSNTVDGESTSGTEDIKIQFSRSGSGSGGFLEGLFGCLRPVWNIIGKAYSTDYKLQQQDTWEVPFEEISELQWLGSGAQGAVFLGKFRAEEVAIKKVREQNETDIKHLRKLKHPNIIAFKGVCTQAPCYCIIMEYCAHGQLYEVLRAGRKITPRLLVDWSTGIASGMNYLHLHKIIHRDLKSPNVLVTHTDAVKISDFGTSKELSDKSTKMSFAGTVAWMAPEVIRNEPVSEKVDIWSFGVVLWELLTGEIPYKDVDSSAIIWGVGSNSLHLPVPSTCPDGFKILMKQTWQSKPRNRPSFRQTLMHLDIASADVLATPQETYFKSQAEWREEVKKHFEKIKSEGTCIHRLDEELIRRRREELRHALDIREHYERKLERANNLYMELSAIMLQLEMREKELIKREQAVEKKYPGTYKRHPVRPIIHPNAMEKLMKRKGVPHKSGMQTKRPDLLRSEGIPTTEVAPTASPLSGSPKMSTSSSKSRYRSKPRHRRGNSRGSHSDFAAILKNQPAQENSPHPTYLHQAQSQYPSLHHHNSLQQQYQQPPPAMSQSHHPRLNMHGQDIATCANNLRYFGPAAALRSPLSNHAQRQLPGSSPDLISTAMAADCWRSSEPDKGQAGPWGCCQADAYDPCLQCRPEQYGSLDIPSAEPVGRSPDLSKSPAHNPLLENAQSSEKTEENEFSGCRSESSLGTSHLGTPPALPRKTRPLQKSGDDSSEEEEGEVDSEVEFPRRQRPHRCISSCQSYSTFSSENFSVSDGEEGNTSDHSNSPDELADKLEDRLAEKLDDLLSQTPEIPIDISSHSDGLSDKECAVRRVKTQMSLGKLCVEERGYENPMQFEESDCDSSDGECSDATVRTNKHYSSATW
Sequence of UniProt Q15759 (whole entry, looked up): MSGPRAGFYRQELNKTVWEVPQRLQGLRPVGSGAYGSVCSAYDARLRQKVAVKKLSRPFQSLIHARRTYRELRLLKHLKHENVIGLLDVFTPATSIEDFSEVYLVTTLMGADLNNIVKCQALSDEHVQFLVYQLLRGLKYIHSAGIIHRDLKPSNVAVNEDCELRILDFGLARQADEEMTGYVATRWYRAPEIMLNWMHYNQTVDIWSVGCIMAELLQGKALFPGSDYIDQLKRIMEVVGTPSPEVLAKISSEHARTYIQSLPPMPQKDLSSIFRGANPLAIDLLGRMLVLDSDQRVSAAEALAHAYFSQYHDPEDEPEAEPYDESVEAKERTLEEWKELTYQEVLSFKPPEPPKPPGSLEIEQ

Sample 1
Target: HLA class I histocompatibility antigen, C alpha chain, allele C*04:01 (Homo sapiens, UniProt P10321)
Read-out: peptide-MHC binding
Molecule type: peptide
Tested at: concentration not given
| Molecule | binding |
| --- | --- |
| YVDIIGLSV | inactive |
| YTFFFTQYF | inactive |
| YRWVNLASF | inactive |
| IYYWTAWLI | inactive |
| RPRVAQLTF | inactive |
| RYWYFAAEL | active |
| HYMLKHLVW | inactive |
| YLRNAGAAM | inactive |

Sample 2
Compound: Cn1cncc1[C@](O)(COc1ccc(C#N)cc1-c1ccc(OC(F)(F)F)cc1)c1ccc(C#N)cc1
Read-out: cell-free assay
Method: competition with immobilised ligand
Tested at: 1 µM
| target | remaining binding |
| --- | --- |
| Mitogen-activated protein kinase kinase kinase 13 (MAP3K13, Homo sapiens, UniProt O43283) | 100% |
| Tyrosine-protein kinase JAK1, JH1 (JAK1, Homo sapiens, UniProt P23458) | 59% |
| Mitogen-activated protein kinase 11 (MAPK11, Homo sapiens, UniProt Q15759) | 90% |

Sample 3
Target: CCNF, cyclin fold, Cln2 fusion (human)
Method: yeast growth competition, sequencing
Sample: yeast
Setting: strong parent motif
Reference: not given
Reading: higher = stronger binding
Starting sequence: viral docking peptide; YKVKRRLVFGADD
| Substitution | normalised enrichment score |
| --- | --- |
| YKVERRLVFGADD [K4E] | 6.81 |
| YKVKRRLVFGATD [D12T] | 9.41 |
| YKVKRRLVFGAQD [D12Q] | 8.95 |
| YKYKRRLVFGADD [V3Y] | 7.58 |
| YHVKRRLVFGADD [K2H] | 8.88 |
| YKVKRRLGFGADD [V8G] | 8.33 |
| YKVKRRLVFSADD [G10S] | 8.27 |
| YKVKRRLVFGADA [D13A] | 8.89 |

Mixed results
| SMILES | cell line | test | setting | endpoint | result |
| --- | --- | --- | --- | --- | --- |
| CC[C@@H](C)c1nc2cc(Nc3ccnc4ccc(S(=O)(=O)C(C)C)cc34)ccc2s1 | L929 | necroptosis protection, CCK-8 | 0.078 µM, with: TNF-α plus zVAD | viability | 16.6% |

Some of these lines once more (sample 1):
| Molecule | binding |
| --- | --- |
| YRWVNLASF | inactive |
| HYMLKHLVW | inactive |
| YVDIIGLSV | inactive |
